Measured values pooled from the literature.
Each numbered part is a random draw from the data of one study; scales do not carry over between parts.

Set 1
Target: Replicase polyprotein 1ab, polymerase (rep, Severe acute respiratory syndrome coronavirus 2, UniProt P0DTD1)
Effect on: enzyme activity
Mode: inhibitor
Tested at: 20 µM
Measurement: inhibition
CC(C)Oc1ccc2c(=O)c3cc(C(=O)O)ccc3oc2c1: 2.43%
CCOc1nc2c(N)ncnc2n1CC: -9.28%
OCC(CO)N[C@H]1C[C@](O)(CO)[C@@H](O)[C@H](O)[C@H]1O: -1.87%
CNCC(=O)O: 2.89%
CCCCC(=O)O[C@]1(C(=O)CO)[C@@H](C)C[C@H]2[C@@H]3CCC4=CC(=O)C=C[C@]4(C)[C@@]3(F)[C@@H](O)C[C@@]21C: 0.86%
CCCCN(Cc1ccc(C(=O)NO)cc1)C(=O)Nc1ccccc1: -9%
Cc1onc(-c2c(Cl)cccc2Cl)c1C(=O)N[C@@H]1C(=O)N2[C@@H]1SC(C)(C)[C@@H]2C(=O)O: 12.9%
COc1c(Nc2ccc(S(C)(=O)=O)nc2C)ncnc1OC1CCN(C(=O)OC(C)C)CC1: -12.2%
COc1ccc(-c2coc3cc(O)cc(O)c3c2=O)cc1: -4.07%
COc1cc(Nc2ncc(F)c(Nc3ccc4c(n3)NC(=O)C(C)(C)O4)n2)cc(OC)c1OC: -1.8%
CC(=O)NCCCOc1ccc(C(=O)N2CCC(N3C(=O)CCc4ccccc43)CC2)cc1: -0.94%
O=C1NCN(c2ccccc2)C12CCN(CCCC(c1ccc(F)cc1)c1ccc(F)cc1)CC2: 0.32%
COc1ccc2c(C)nc(Nc3nc(C)c(C)c(=O)[nH]3)nc2c1: -2.78%
CN1CCN(C2=Nc3ccccc3Sc3ccc(Cl)cc32)CC1: 1.88%
CC(C)=CCC[C@](C)(O)[C@H]1CC[C@]2(C)[C@@H]1[C@H](O)C[C@@H]1[C@@]3(C)CC[C@H](O)C(C)(C)[C@@H]3[C@@H](O)C[C@]12C: -1.57%
COc1c(-c2ccc3cc(NS(C)(=O)=O)ccc3c2)cc(-n2ccc(=O)[nH]c2=O)cc1C(C)(C)C: 0.65%
CN1CCCCC1Cn1cc(C(=O)c2cc([N+](=O)[O-])ccc2I)c2ccccc21 (stereo not drawn): -1.63%
O=C(/C=C/c1cccc(F)c1)NC1CC1: -0.75%
Nc1ccc(C(=O)OCC(O)CO)cc1 (stereo not drawn): 1.72%
CC(C)C(=O)c1c(C(C)C)nn2ccccc12: 0.03%
CCCCCCCCCCC(CO)CCCCCCCC (stereo not drawn): -1.81%
C[C@H](NCc1ccc(OCc2ccccc2F)cc1)C(N)=O: 2.84%
C=CCNC(N)=S: 1.34%
Cc1nc2ccc(NC(=O)Nc3ccnc4cccnc34)cc2o1: 6.16%
COc1ccc2cc3[n+](cc2c1OC)CCc1cc2c(cc1-3)OCO2: 4.99%

Set 2
Target: Sal-like protein 4, full length isoform A (SALL4, Homo sapiens, UniProt Q9UJQ4, residues 1-1053)
UniProt Q9UJQ4, sequence (whole entry, looked up): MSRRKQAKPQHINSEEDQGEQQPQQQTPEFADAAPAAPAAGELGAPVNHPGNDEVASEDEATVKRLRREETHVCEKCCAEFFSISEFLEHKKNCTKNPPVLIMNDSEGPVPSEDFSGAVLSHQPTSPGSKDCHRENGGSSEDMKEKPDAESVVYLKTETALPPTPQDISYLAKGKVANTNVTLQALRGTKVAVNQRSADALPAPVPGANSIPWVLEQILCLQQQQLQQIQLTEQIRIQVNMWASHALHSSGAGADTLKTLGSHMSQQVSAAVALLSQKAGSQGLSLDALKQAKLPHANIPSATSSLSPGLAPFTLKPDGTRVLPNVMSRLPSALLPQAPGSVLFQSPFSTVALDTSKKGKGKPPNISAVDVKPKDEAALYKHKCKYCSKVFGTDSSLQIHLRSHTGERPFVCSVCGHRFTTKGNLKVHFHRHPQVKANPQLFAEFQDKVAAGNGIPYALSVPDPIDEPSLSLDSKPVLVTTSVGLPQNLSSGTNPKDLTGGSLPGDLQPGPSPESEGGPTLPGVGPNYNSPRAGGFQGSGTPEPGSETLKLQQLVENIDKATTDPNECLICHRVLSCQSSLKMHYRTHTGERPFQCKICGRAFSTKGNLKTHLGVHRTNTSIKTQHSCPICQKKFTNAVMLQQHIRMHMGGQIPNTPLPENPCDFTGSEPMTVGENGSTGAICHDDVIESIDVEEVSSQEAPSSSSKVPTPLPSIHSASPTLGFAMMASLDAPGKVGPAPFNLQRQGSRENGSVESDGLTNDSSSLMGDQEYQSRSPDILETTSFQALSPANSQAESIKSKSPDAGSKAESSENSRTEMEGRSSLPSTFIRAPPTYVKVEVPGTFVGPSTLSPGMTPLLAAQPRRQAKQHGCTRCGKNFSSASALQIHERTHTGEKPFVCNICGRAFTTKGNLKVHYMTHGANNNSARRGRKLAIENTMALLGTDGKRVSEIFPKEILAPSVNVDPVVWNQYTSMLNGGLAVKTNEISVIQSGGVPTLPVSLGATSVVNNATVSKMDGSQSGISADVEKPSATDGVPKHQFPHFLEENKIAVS
Method: universal PBM
Form: double-stranded DNA, one strand shown
Sample: in vitro
Tested at: 600 nM
Notes: 8-mer, flanks averaged, mean of replicates
Direction: higher = stronger binding
Measurement: E-score
AACCCCCA: -0.228
ACGTGACG: -0.0694
CCAAGTCG: -0.126
AATTTCAA: 0.283
TTCACGAA: -0.0185
AAAATTCG: 0.255
ATAACTCA: 0.277
ACAGCTTA: 0.0843

Set 3
Target: Replicase polyprotein 1ab, main protease (rep, Severe acute respiratory syndrome coronavirus 2, UniProt P0DTD1)
Effect on: enzyme activity
Tested at: 20 µM
Notes: with DTT
Measurement: inhibition
COC(=O)[C@H](CCSC)NC(=O)c1ccc(NC[C@@H](N)CS)cc1-c1ccccc1: 83%
Cc1ccc(C(=O)n2nc(-c3cccnc3)nc2N)cc1: 49.7%
Sc1nnc(-c2ccccc2Cl)o1: 82.2%

Set 4
Cell line: HEK-293T
Effect on: pseudovirus infection
Method: FDA-approved drug library screen
Organism: VSV pseudotyped with SARS-CoV-2 spike
Tested at: 10 µM
Time: 16 h
Reference: vehicle-treated
Measurement: GFP-positive cells
C[C@H]1[C@H](NC(=O)/C(=N\OC(C)(C)C(=O)O)c2csc(N)n2)C(=O)N1S(=O)(=O)O: 66.8%
Nc1nc(F)nc2c1ncn2[C@@H]1O[C@H](COP(=O)(O)O)[C@@H](O)[C@@H]1O: 117%
O=C(O[C@H]1C[C@H]2CC[C@@H](C1)[N+]21CCCC1)C(O)(c1ccccc1)c1ccccc1: 75.7%
CN1C(=O)OC(C)(C)C1=O: 98.9%
CC(C)NCC(O)COc1cccc2[nH]ccc12 (stereo not drawn): 91.9%

Set 5
Target: Histone acetyltransferase KAT6A, winged helix 1, GST fusion (KAT6A, Homo sapiens, UniProt Q92794, residues 1-85)
Method: protein binding microarray
Form: double-stranded DNA, one strand shown
Sample: in vitro
Tested at: not given
Notes: 8-mer, flanks averaged, mean of 2 arrays, mostly near background
Reference: not given
Direction: higher = stronger binding
Measurement: E-score
Target sequence (chain): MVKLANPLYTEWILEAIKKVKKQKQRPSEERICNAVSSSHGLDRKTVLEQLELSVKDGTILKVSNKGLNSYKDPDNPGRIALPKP
AGGCAAAA: -0.136
AACCCAGT: -0.126
AGCTAGAC: -0.0758
GGAGTGTA: 0.109
CGATGGAG: 0.146
ACCCACGG: 0.148
AGTCTCTA: -0.193
CCAACCAA: -0.134

Set 6
Target: Centromere-binding protein 1, full length, N-terminal tag (CBF1, Saccharomyces cerevisiae, UniProt P17106, residues 1-351)
UniProt P17106, sequence (whole entry, looked up): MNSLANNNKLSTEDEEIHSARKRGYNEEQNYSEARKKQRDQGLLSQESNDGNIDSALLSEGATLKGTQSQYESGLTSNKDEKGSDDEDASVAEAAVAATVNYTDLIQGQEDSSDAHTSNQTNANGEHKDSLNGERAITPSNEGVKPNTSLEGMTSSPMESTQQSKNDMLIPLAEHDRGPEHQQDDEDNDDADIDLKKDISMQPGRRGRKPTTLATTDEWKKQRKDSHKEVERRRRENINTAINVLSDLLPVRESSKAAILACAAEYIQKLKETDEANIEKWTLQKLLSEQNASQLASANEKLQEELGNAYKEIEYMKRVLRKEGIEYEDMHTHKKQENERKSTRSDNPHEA
Method: protein-binding microarray
Form: double-stranded DNA, one strand shown
Sample: in vitro
Tested at: 0.8 µM
Notes: whole 60-bp probe, no competitor
Direction: higher = stronger binding
Measurement: fluorescence intensity
All sequences stand within: … GTCTTGATTCGCTTGACGCTGCTG
GAATTTCTAAACGGTGATGTTACCCGTCTAAATTAG: 519 a.u.
CTAAATCTTTTTTGTCACATGTACACACTCATATTC: 3270 a.u.
CTAAATAGATCTAGGCACGTGGCTGCAGTGACTTTC: 7910 a.u.
CCTAACTACTATATTCATGTGCTATAGCTTCGTACA: 585 a.u.
CTAAAAGAGCATTAGGGTCACGTGTATACATTCTTC: 13800 a.u.

A few entries again (set 1):
Nc1ccc(C(=O)OCC(O)CO)cc1 (stereo not drawn): 1.72%
CCOc1nc2c(N)ncnc2n1CC: -9.28%
COc1c(-c2ccc3cc(NS(C)(=O)=O)ccc3c2)cc(-n2ccc(=O)[nH]c2=O)cc1C(C)(C)C: 0.65%
CC(C)Oc1ccc2c(=O)c3cc(C(=O)O)ccc3oc2c1: 2.43%
CC(=O)NCCCOc1ccc(C(=O)N2CCC(N3C(=O)CCc4ccccc43)CC2)cc1: -0.94%
